{"data": "Measured values pooled from the literature", "note": "Parts stem from different laboratories: compare values within a part only. Changes are numbered by the printed parent chain."}
{"data": "Study 1", "target": "Histone acetyltransferase KAT6A, both winged helices, GST fusion (KAT6A, Homo sapiens, UniProt Q92794, residues 1-181)", "method": "protein binding microarray", "molecule type": "double-stranded DNA, one strand shown", "sample": "in vitro", "tested at": "not given", "setting": "8-mer, flanks averaged, mean of 2 arrays, mostly near background", "reference": "not given", "direction": "higher = stronger binding", "Residues (chain)": "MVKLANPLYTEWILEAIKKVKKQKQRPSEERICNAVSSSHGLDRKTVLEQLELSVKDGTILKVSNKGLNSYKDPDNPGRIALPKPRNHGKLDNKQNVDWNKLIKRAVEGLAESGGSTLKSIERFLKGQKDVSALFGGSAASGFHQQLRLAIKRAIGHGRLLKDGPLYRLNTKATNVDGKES"}
{"Oligonucleotide": "GCAACCAC", "E-score": -0.151}
{"Oligonucleotide": "AAACTTTC", "E-score": -0.145}
{"Oligonucleotide": "GTAGGATA", "E-score": -0.201}
{"Oligonucleotide": "AATATAAA", "E-score": -0.0298}
{"Oligonucleotide": "GCATTTCA", "E-score": -0.0756}
{"Oligonucleotide": "ATCGCAAC", "E-score": -0.0169}
{"Oligonucleotide": "ACGGATGC", "E-score": 0.205}
{"Oligonucleotide": "AATCCCCC", "E-score": -0.152}
{"Oligonucleotide": "CGAAGGAC", "E-score": 0.098}
{"Oligonucleotide": "GACCCGTA", "E-score": 0.178}
{"Oligonucleotide": "CTAATCCC", "E-score": 0.0736}
{"Oligonucleotide": "AGTAAAGC", "E-score": -0.000165}
{"Oligonucleotide": "AGTGGTCG", "E-score": -0.133}
{"Oligonucleotide": "AGAGCACG", "E-score": 0.0819}
{"Oligonucleotide": "GCGCAACC", "E-score": 0.21}
{"Oligonucleotide": "AGACATAT", "E-score": -0.0147}
{"Oligonucleotide": "AGGCCTGA", "E-score": -0.243}
{"Oligonucleotide": "ACTGGTTG", "E-score": -0.0296}
{"data": "Study 2", "target": "RNA binding protein fox-1 homolog 2, RRM domain, GST-SBP tag (RBFOX2, Homo sapiens, UniProt O43251-10, residues 100-194)", "method": "RNA Bind-n-Seq", "molecule type": "RNA", "sample": "in vitro", "tested at": "365 nM", "setting": "natural RNA segment, single round, ends assumed", "reference": "no-protein control", "direction": "higher = stronger binding", "all sequences stand within": "GGGAGUUCUACAGUCCGACGAUC … UGGAAUUCUCGGGUGCCAA", "Target sequence (chain)": "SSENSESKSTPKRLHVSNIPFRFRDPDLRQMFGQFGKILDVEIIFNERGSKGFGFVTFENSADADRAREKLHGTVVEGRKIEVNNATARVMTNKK"}
{"Oligonucleotide": "UUUGCUGUAGCCCUAGAGCACUUUGUUUGUGGGAGGCUGGCCUCUUGCCUACCUCCUUGCAUGGACAGGGGGAUGAAUAUUUACUUUCCCACCUCCUUGCUUUUUCUUUC", "RBNS enrichment (R)": 1.17}
{"Oligonucleotide": "UUUAUUUUGUAACAUAUCAAUUAUAAAUAUUGUAUUUAUCUUUGAAAUUUUGUACAUUGCUUUUCCCACCUUUUCCUUUUUCUUCUUUCUUGUCUGUAUUGGUUUUUGAU", "RBNS enrichment (R)": 2.54}
{"Oligonucleotide": "UUAUUCCACACAGCAGUUUGACUUUGUAAAAGUUUAGCAAAAUAACUGAUUGUUUUGGAUAACUCAACAUGUUUUUCUUAAAUGCUGUUUUAGUAUUUUCUACCUCUUAA", "RBNS enrichment (R)": 0.338}
{"Oligonucleotide": "UUAAUGAUUAGCUGUGGUUAUGAUCUUGAGCCCUAACAUGCCACAUUACUCAAGAUUUACACAGGCAAGUGACUUCAUUUGGCACUGCUAAUAAUGGCAGGUGAACAUUC", "RBNS enrichment (R)": 0.401}
{"Oligonucleotide": "AACUCCUGGCACAGUGUUCCUAGACCCCCAGGCUGCAUGGGGGACAGGAGGGCCUGUAGAUAACCCUUCCAUUUCCUUCAUCUCAUCCAGUCUGUAGGGAUACAUUUUUC", "RBNS enrichment (R)": 0.742}
{"Oligonucleotide": "GGUGACUGUUUAACAAGCUGUGCAUCCCCCACAAAAAUAGGAGUGCCCUAUUUGUAGUCUCCACCUCUCUGCACAGCUCCUUCUGGGUGGUCCUCAGCAGGGUUUUGACC", "RBNS enrichment (R)": 0.454}
{"Oligonucleotide": "GCAGGACUUCACAAGUUAAUCAUUCCUUAGGCCUCCCUUGGCCCUUUCAUCCUGGAUUCUUAGGUGGGAAUCAGACACUUAGAAAGAUGUUGGGUCAAGGUUCUAGGAGC", "RBNS enrichment (R)": 0.431}
{"Oligonucleotide": "CCCUGCCCAGUCCUAGCCUCCCCGUCACUGUCUCGGCUGCUCCCCCAUAGUUGGUUAUUUUUUAUUUGGGGCAGUGGGUGCAUACGGGGAGGGGAGGGUGUUCUUCCCAA", "RBNS enrichment (R)": 0.622}
{"Oligonucleotide": "CAUCUGUGUCUGACCAAAUCAGGGGACUUCCCCACCUGUGGUGGGAGGCACAGCUUAGAUGUUUUGUACACCUGGUCUUUUCUAGAAAUCCCUGCUUGGAGCUGCAGAAG", "RBNS enrichment (R)": 0.276}
{"Oligonucleotide": "UCCUGGGGGAGGCAGGGGUUGGCAGACCCUUGCCUGCGUGGUGCCGUCCUGCUCAUGUGGUAGGCUAGCAAUAUUUUGGUUAAAAUCAUGUUUGUGACUGUAACCAUUUG", "RBNS enrichment (R)": 0.389}
{"Oligonucleotide": "AUGUUGCACUGGUGGCAAUUCAUCAUGGAGCAUAAUAAAAUUAAUUUGACCCAAAUAGAAUAAAAUAUGUGUUUCAUGUGUUUAUUGUUAAGAGAGUAAAAUAGGUUUAA", "RBNS enrichment (R)": 0.326}
{"Oligonucleotide": "GCCGCUGCAGGCCAUUGUACACAAACUGGUUGUAUGUAUCAGACUGCAGAUGGGAGGAGCAGUGGUGCCUCAAGUCUGCACAUGCUCUGCUUCUAGAAGACUGACUGUGG", "RBNS enrichment (R)": 0.483}
{"data": "Study 3", "target": "Ras GTPase-activating protein-binding protein 1, RRM domain (G3BP1, Homo sapiens, UniProt Q13283)", "method": "RNA Bind-n-Seq", "molecule type": "RNA", "sample": "in vitro", "tested at": "1 µM", "setting": "whole 134-nt RNA, ends assumed", "with": "150 mM KCl", "reference": "input library", "direction": "higher = stronger binding", "all sequences stand within": "GGGAGUUCUACAGUCCGACGAUC … UGGAAUUCUCGGGUGUCAAGG", "chain of UniProt Q13283 (whole entry, looked up)": "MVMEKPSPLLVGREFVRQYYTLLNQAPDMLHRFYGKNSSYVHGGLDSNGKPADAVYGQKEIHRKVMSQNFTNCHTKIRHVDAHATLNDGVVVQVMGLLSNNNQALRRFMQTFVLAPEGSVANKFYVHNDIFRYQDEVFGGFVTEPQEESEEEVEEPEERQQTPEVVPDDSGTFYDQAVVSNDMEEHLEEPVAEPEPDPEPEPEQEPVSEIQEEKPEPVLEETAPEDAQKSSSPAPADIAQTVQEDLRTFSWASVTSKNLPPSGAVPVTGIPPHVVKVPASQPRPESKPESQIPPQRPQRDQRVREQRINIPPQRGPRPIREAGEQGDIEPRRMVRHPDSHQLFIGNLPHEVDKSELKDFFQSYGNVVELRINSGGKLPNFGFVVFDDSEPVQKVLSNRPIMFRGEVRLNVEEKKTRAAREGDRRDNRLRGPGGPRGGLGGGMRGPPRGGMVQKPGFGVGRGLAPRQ"}
{"Oligonucleotide": "CCUCAAGUCCUGUGCUACACAUCGUAUGUACCGAAUCGGGUUGGUUGGUUGGAAAGUAUUAUGUUACGCCGUUCGGAUCUGCACUUCCAG", "log2 enrichment": -0.185}
{"Oligonucleotide": "GUCCUGUGCUACACAUCGUAUGUACCGAAUCGGGGUUUUUUUGGGGAGGGGAAAGGGGAAAGUAUUAUGUUACGCCGUUCGGAUCUGCAC", "log2 enrichment": 1.14}
{"Oligonucleotide": "CUCAAGUCCUGUGCUACACAUCGUAUGUACCGAAUCGGAAGGAAGGGGAAGGGAAAGUAUUAUGUUACGCCGUUCGGAUCUGCACUUCCA", "log2 enrichment": -0.137}
{"Oligonucleotide": "UCAAGUCCUGUGCUACACAUCGUAUGUACCGAAUCGGAAAGGUUUUUGGAAAGGAAAGUAUUAUGUUACGCCGUUCGGAUCUGCACUUCC", "log2 enrichment": -0.283}
{"Oligonucleotide": "CAAGUCCUGUGCUACACAUCGUAUGUACCGAAUCGGGAGGGAGGGUUUUUUUGGGAAAGUAUUAUGUUACGCCGUUCGGAUCUGCACUUC", "log2 enrichment": 0.64}
{"Oligonucleotide": "UCCUCAAGUCCUGUGCUACACAUCGUAUGUACCGAAUCGGAGGGAGGAGGGGAAAGUAUUAUGUUACGCCGUUCGGAUCUGCACUUCCAG", "log2 enrichment": -0.0992}
{"Oligonucleotide": "UGGGAGGUGGAUUAUGUUUAUUUUUUUAGCUCAUUUCCAGGGGUGGGAAUUUUUUUUUAAUAUGUGUCAUGAAUAAAGUUGUUUUUGAAA", "log2 enrichment": 1.45}
{"Oligonucleotide": "UCAAGUCCUGUGCUACACAUCGUAUGUACCGAAUCGGAGGAAAAAGGAAAAAGGAAAGUAUUAUGUUACGCCGUUCGGAUCUGCACUUCC", "log2 enrichment": -0.138}
{"Oligonucleotide": "AGUCCUGUGCUACACAUCGUAUGUACCGAAUCGGGGAAAAGGGAAAAGGGGAAAAGGAAAGUAUUAUGUUACGCCGUUCGGAUCUGCACU", "log2 enrichment": -0.0641}
{"Oligonucleotide": "CCUGUGCUACACAUCGUAUGUACCGAAUCGGUUUUUUUGGGGUUUUUUUGGUUUUUUUGGAAAGUAUUAUGUUACGCCGUUCGGAUCUGC", "log2 enrichment": -0.191}
{"data": "Study 4", "target": "CCND2, cyclin fold, Cln2 fusion (human)", "method": "yeast growth competition, sequencing", "sample": "yeast", "setting": "weak parent motif", "reference": "not given", "direction": "higher = stronger binding", "parent": "E2F7 docking peptide (human); SSAQRRLEIPSGG; partner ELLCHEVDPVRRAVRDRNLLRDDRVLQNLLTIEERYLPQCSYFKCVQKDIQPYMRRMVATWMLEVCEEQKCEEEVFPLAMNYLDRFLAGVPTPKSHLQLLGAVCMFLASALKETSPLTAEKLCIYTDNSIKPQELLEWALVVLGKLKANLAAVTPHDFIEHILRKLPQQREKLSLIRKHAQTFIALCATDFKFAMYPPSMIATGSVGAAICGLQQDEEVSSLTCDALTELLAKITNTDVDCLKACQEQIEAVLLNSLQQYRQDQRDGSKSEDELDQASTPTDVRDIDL"}
{"Variant": "L7A", "normalised enrichment score": 0.000733}
{"Variant": "S1A", "normalised enrichment score": 0.401}
{"Variant": "Q4A", "normalised enrichment score": 0.0953}
{"Variant": "E8A", "normalised enrichment score": 0.263}
{"Variant": "I9L", "normalised enrichment score": 0.178}
{"Variant": "P10A", "normalised enrichment score": 0.0726}
{"Variant": "I9A", "normalised enrichment score": 0.669}
{"Variant": "R5K I9L", "normalised enrichment score": 0.151}
{"data": "Other studies, line by line"}
{"Substance": "PhoQ, residues 284 288 289 292 302 303 SSYNSA", "target": "PhoP, residues 12 14 15 18 19 SYFRT (Escherichia coli, UniProt P23836)", "test": "Sort-seq, measured: YFP reporter", "test system": "E. coli", "setting": "PhoQ-PhoP variant library, with: 10 µM Mg2+", "scale": "reference: high Mg2+ state, higher = stronger signaling", "measurement": "fold induction", "value": 1.09}
{"note": "Some of these lines once more (study 1):"}
{"Oligonucleotide": "GTAGGATA", "E-score": -0.201}
{"Oligonucleotide": "AATATAAA", "E-score": -0.0298}
{"Oligonucleotide": "GCATTTCA", "E-score": -0.0756}
{"Oligonucleotide": "ATCGCAAC", "E-score": -0.0169}
{"Oligonucleotide": "ACGGATGC", "E-score": 0.205}
{"Oligonucleotide": "AATCCCCC", "E-score": -0.152}
{"Oligonucleotide": "CGAAGGAC", "E-score": 0.098}
{"Oligonucleotide": "GACCCGTA", "E-score": 0.178}
